Measured values gathered from unrelated publications.
Parts stem from different laboratories: compare values within a part only.

Sample 1
Target: Histone acetyltransferase KAT6A, both winged helices, GST fusion (KAT6A, Homo sapiens, UniProt Q92794, residues 1-181)
Technique: protein binding microarray
Form: double-stranded DNA, one strand shown
Sample: in vitro
Concentration: not given
Setting: 8-mer, flanks averaged, mean of 2 arrays, mostly near background
Baseline: not given
Direction: higher = stronger binding
Construct (chain): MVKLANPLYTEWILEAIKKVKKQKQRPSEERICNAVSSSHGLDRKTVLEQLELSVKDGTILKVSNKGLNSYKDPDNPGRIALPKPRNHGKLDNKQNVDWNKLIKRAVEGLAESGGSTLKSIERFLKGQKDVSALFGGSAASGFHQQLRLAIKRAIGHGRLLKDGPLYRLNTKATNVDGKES
Sequence	E-score
CATTCGGC	0.14
ACAAGCAA	-0.114
CACTCTTC	-0.153
GAGCCGAC	0.121
CATAAGCC	-0.0063
AGATCTAC	-0.0623

Sample 2
Target: Prothrombin, mature alpha-thrombin (F2, Homo sapiens, UniProt P00734)
Technique: aptamer microarray, sandwich
Form: DNA with 2'F-ANA
Sample: in vitro
Concentration: 200 nM
Setting: whole 15-mer aptamer, many near background
Added: Cy3 exosite-II aptamer, 400 nM
Direction: higher = stronger binding
Sequence	mean fluorescence intensity [a.u.]
GGTTGGTGTGGTTGG (2'F-ANA at 2 7 10 11 14 15)	87.3
GGTTGGTGTGGTTGG (2'F-ANA at 1 2 4 5 8 10 12 15)	86.5
GGTTGGTGTGGTTGG (2'F-ANA at 1 3 5 8)	68.8
GGTTGGTGTGGTTGG (2'F-ANA at 1 3 9 11)	251

Sample 3
Target: Interferon regulatory factor 5, full length, phosphomimetic (IRF5, Homo sapiens, UniProt Q13568-2, residues 1-514, K96S/S451D/S453D/S456D/S462D)
Technique: protein-binding microarray
Form: double-stranded DNA, one strand shown
Sample: in vitro
Concentration: 250 nM
Setting: 60-bp whole probe
Added: salmon DNA 0.4 mg/ml
Baseline: random background probes
Direction: higher = stronger binding
Sequence	log fluorescence [z-score]
GCCTAGCACTTAGGTTACCTTATCCTTTAGTGCTAGGTCTTGATTCGCTTGACGCTGCTG	0.038
GCCTAGCACTTAGGTTACGGGACTGGGTTAGTGCTAGTCTTGATTCGCTTGACGCTGCTG	-0.121
GCCTAGCACAACTGTCTGCCTTTCAATCCGTGCTAGGTCTTGATTCGCTTGACGCTGCTG	0.677
GCCTAGCACGCTAGTTCAGTTCTCTAGAAGTGCTAGGTCTTGATTCGCTTGACGCTGCTG	-0.212

Other studies, line by line
Substance	target	assay	system	conditions	scale	measurement	result
PhoQ, residues 284 288 289 292 302 303 SCKMEA	PhoP, residues 12 14 15 18 19 LHSVW (Escherichia coli, UniProt P23836)	Sort-seq, item: YFP reporter	E. coli	PhoQ-PhoP variant library, added: 10 µM Mg2+	baseline: high Mg2+ state, higher = stronger signaling	fold induction	12.8

Some of these lines once more (sample 2):
Sequence	mean fluorescence intensity [a.u.]
GGTTGGTGTGGTTGG (2'F-ANA at 1 3 5 8)	68.8
